Assay results collected from several papers.
Numbered parts are unrelated; each lists some results of a single study.
UniProt Q8NFD2, sequence (whole entry, looked up): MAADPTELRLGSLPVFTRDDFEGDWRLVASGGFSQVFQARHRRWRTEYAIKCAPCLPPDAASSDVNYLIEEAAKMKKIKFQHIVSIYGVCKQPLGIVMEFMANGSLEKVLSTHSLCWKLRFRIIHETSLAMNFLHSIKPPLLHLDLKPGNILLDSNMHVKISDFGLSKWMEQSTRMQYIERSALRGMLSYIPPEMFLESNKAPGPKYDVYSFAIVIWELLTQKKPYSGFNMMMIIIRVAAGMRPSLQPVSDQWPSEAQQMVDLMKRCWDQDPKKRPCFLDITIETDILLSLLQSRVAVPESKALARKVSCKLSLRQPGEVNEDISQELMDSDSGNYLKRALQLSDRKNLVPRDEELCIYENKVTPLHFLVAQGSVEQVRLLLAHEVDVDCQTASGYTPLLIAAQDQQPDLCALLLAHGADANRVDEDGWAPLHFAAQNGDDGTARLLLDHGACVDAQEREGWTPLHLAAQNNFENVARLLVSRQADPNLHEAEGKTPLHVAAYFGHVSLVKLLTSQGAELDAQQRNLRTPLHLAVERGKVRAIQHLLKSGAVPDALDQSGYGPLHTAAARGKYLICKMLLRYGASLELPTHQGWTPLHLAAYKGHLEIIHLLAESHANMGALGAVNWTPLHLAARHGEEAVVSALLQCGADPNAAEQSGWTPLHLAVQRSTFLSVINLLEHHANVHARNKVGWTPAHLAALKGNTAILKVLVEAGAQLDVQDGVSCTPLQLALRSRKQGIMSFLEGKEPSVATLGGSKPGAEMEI
UniProt Q02763, sequence (whole entry, looked up): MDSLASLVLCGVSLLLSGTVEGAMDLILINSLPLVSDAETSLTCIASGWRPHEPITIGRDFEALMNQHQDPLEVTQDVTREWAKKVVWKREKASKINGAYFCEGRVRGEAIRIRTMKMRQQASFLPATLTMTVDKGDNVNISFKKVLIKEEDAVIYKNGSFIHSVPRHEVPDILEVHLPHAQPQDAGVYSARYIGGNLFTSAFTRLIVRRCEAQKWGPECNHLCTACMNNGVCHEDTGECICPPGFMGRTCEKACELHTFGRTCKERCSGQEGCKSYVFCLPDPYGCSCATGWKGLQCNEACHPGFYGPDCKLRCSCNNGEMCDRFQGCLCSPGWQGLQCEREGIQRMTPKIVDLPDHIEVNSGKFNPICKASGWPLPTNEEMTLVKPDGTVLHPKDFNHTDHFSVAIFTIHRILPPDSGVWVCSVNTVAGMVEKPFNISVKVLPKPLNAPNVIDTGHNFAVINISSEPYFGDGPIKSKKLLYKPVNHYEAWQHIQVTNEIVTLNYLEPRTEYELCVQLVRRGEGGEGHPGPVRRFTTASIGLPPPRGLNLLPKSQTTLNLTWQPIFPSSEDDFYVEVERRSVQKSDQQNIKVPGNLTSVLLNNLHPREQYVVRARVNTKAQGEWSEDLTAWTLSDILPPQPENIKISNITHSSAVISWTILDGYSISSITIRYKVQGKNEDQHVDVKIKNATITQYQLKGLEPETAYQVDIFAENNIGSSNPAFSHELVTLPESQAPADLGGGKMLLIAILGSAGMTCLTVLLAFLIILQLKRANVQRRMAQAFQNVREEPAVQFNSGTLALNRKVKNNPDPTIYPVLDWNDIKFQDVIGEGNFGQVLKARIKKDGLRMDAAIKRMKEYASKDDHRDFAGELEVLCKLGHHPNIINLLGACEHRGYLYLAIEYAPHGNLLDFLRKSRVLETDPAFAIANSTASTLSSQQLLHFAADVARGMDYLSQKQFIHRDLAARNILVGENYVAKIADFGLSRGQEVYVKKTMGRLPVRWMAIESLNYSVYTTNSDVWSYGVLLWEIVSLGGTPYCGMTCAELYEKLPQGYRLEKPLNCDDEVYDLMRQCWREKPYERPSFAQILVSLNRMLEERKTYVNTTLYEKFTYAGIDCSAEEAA
UniProt P29320, sequence (whole entry, looked up): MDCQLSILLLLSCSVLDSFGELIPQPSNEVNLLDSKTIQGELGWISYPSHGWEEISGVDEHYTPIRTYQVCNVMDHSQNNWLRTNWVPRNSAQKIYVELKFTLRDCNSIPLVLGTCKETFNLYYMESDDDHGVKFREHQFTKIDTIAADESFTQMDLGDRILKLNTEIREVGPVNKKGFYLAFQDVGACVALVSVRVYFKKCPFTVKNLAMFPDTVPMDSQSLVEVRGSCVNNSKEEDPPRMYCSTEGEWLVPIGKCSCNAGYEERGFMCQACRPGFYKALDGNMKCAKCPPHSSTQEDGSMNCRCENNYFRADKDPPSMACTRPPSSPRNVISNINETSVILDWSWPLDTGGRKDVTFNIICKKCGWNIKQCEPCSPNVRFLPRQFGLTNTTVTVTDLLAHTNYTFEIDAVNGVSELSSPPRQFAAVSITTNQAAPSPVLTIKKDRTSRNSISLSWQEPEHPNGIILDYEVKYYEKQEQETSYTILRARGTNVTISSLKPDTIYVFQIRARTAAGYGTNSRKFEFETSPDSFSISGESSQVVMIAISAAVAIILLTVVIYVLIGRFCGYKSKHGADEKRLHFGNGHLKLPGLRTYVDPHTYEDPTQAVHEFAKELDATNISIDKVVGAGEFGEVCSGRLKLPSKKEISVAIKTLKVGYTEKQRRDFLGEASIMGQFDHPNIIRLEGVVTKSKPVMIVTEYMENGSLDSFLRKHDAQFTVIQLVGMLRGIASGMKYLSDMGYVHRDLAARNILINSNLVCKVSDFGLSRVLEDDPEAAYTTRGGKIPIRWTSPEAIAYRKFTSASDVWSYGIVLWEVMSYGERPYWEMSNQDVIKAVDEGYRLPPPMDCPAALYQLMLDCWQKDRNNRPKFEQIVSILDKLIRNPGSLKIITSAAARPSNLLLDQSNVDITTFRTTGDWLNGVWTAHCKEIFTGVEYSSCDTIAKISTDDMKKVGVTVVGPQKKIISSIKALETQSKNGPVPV
UniProt P52333, sequence (whole entry, looked up): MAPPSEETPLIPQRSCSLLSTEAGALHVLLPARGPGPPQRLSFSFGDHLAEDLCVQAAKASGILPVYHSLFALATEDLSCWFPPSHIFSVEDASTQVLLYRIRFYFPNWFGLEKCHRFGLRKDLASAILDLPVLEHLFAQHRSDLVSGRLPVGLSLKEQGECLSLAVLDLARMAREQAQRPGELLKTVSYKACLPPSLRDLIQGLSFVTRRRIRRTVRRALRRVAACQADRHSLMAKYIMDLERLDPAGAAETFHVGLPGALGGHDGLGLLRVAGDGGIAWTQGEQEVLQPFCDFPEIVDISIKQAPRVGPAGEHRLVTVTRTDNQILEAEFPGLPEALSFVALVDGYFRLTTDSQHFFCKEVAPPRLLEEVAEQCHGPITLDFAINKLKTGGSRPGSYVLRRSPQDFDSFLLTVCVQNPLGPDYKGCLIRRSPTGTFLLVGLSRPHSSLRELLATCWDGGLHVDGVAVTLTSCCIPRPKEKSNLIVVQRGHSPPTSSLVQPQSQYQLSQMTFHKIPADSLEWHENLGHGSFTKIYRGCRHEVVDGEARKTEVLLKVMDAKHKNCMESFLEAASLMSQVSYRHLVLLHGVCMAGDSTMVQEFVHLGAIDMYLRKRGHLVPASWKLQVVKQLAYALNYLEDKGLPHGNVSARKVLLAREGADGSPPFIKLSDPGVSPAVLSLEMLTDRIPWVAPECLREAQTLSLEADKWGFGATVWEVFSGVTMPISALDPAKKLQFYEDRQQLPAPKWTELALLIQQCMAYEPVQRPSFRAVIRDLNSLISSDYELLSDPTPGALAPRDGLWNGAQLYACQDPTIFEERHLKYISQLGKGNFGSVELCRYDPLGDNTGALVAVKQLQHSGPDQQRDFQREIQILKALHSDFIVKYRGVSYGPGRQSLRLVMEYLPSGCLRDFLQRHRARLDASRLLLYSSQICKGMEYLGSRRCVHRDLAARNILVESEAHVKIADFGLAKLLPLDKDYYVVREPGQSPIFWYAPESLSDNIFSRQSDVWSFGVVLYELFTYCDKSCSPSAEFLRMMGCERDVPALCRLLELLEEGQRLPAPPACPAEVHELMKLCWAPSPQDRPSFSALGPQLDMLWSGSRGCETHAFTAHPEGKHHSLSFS
UniProt P11802, sequence (whole entry, looked up): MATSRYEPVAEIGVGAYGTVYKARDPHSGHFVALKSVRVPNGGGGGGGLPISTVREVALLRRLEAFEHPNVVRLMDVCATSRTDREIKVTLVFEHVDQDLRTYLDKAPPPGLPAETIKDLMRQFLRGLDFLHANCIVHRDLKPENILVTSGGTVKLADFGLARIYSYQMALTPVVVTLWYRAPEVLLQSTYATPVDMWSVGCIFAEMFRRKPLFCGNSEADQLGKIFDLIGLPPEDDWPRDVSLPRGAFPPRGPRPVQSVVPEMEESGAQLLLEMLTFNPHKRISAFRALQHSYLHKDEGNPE
UniProt P78368, sequence (whole entry, looked up): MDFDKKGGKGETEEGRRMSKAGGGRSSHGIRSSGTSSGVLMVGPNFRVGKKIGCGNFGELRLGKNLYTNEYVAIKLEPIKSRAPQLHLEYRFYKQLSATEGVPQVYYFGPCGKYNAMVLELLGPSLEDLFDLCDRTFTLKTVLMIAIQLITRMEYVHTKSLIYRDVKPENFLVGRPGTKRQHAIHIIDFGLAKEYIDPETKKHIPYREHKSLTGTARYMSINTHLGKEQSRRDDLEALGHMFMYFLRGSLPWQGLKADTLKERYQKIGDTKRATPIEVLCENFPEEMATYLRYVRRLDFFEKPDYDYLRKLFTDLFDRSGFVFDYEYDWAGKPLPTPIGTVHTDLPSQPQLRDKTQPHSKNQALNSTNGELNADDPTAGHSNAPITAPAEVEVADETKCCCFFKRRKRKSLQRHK

Sample 1
SMILES: CC1=C(C#N)[C@@H](c2ccc3[nH]nc(C)c3c2)C(C#N)=C(c2ccc(Cl)cc2)N1
Read-out: cell-free assay
Method: competition with immobilised ligand
Tested at: 1 µM
Endpoint: remaining binding
GSK3A (Homo sapiens, UniProt P49840): 100%
CSF1R (Homo sapiens, UniProt P07333): 100%
ANKK1 (Homo sapiens, UniProt Q8NFD2): 100%
RET (Homo sapiens, UniProt P07949, V804M): 73.8%
DAPK1 (Homo sapiens, UniProt P53355): 100%
PLK3 (Homo sapiens, UniProt Q9H4B4): 77.5%
CDK4 (Homo sapiens, UniProt P11802): 78.8%
PTK6 (Homo sapiens, UniProt Q13882): 100%
EPHB6 (Homo sapiens, UniProt O15197): 100%
MERTK (Homo sapiens, UniProt Q12866): 100%

Sample 2
Target: RNA binding protein fox-1 homolog 2, RRM domain, GST-SBP tag (RBFOX2, Homo sapiens, UniProt O43251-10, residues 100-194)
Method: RNA Bind-n-Seq
Molecule type: RNA
Medium: in vitro
Tested at: 365 nM
Notes: natural RNA segment, single round, ends assumed
Relative to: no-protein control
Direction: higher = stronger binding
Endpoint: RBNS enrichment (R)
Target sequence (chain): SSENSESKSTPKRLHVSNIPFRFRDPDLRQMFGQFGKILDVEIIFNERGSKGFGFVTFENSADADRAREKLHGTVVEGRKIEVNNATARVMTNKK
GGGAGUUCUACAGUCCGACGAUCGCUUGAUAUUGCCUAGCUUUGUUGUUUUAAUUAACUUUCUAUUAGAGAGACUGUAUAUAUUUUUUCUAAAUACUUUGUGAAAUCAUUUUUGGUAGCAAUAUCUUUGAAUAUGGAAUUCUCGGGUGCCAA: 0.622
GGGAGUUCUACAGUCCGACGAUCCUUUGCACAAUGUCUUUGGUUGCAAGUCAUAAGCCUGAGGCAAAUAAAAUUCCAGUAAUUUCCAAGAAUGUGGUGUUGGUACUUUCCUAAUAAACCGAUAACGUACCUUGUGGAAUUCUCGGGUGCCAA: 5.99
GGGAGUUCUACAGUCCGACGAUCCGCCUGUGACCACCACCCCAACAAACCAUCCAGUGACAAACCAUCCAGUGGAGGUUUGUCGGGCACCAGCCAGCGUAGCAGGGUCGGGAAAGGCCACCUGUCCCACUCCUUGGAAUUCUCGGGUGCCAA: 0.297
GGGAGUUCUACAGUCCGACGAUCAUUUCCUACACUAUUUGAGCAUGGAAAUCAUAGUCCCCACUCUGUGAAAACUUAACGCUUUUUGGAAGACAUUUCUGUAGCAUGUCAGUUUGGAGAAAUGAUGAGCUACGUGGAAUUCUCGGGUGCCAA: 0.899
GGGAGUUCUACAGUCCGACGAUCGAUGUUCAAUCAAUCAGUCACUGUGUCCCAGACAUAUUCAAUAAACACAGAUUGGUACCACCCAGCACGAGGUGUGUGAGGGUCUGUAGUGCGACUGCUGUGGUGCCCAGUGGAAUUCUCGGGUGCCAA: 2.1
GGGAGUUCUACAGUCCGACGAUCGAAAGGGGUGAAGGCUGUGGACCCCAAGACUGGCCGGGAGAUCCCUUACACAUUUGAGGACCGAAUCAACUUUGCCGUGUUCCCAUCCCUGCAGGGGGGCCCCCACAAUCUGGAAUUCUCGGGUGCCAA: 0.158
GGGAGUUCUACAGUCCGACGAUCGCAUGUCUAUGAUGUGUGUGUCGCUGGGAAGGUCAUGCUUGCCAGUUAUGGGUGGAUCGCAGCUCUUCGCCAUCAAGUGCAUUCAGGAUUAUUCCUGGGAGGUUGCUUAAUGGAAUUCUCGGGUGCCAA: 0.417
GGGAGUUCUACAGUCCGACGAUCCCAAGAUACAGCUCAGGCCUUGGCUUCAGAGGGUGCAAGCCCCAAGUCUUGGCAUCUUCCACGUAGUGUUGAGCCUGCAGGUGCACAGAAGUCAAGAACUGAGGUUUGGGUGGAAUUCUCGGGUGCCAA: 0.462

Sample 3
SMILES: CC(=O)c1ccc(N2CCOCC2)cc1O
Read-out: enzyme activity
Mode: inhibitor
Tested at: 0.5 µM
Relative to: control
Endpoint: remaining activity
TEK (Homo sapiens, UniProt Q02763): 101%
MAP3K14 (Homo sapiens, UniProt Q99558): 82.6%
CSNK1G3 (Homo sapiens, UniProt Q9Y6M4): 101%
TAOK2 (Homo sapiens, UniProt Q9UL54): 107%
EPHA3 (Homo sapiens, UniProt P29320): 108%
JAK3 (Homo sapiens, UniProt P52333): 104%
ULK2 (Homo sapiens, UniProt Q8IYT8): 114%
CSNK1G2 (Homo sapiens, UniProt P78368): 102%
TBK1 (Homo sapiens, UniProt Q9UHD2): 99%
FGFR3 (Homo sapiens, UniProt P22607): 105%
MAPK3 (Homo sapiens, UniProt P27361): 103%
GSK3B (Homo sapiens, UniProt P49841): 122%
MAP3K5 (Homo sapiens, UniProt Q99683): 99.4%

Further values, each from its own experiment
Target: SMN1, full length (human, UniProt Q16637, residues 1-294)
UniProt Q16637, sequence (whole entry, looked up): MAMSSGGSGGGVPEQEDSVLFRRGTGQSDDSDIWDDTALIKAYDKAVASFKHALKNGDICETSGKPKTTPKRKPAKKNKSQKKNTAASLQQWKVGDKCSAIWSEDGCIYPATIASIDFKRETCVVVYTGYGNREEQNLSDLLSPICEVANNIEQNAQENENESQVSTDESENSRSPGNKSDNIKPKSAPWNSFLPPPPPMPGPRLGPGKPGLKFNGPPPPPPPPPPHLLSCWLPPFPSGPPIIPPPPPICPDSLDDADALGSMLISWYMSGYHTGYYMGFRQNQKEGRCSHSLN
Method: nitrocellulose filter binding
Molecule type: RNA
Medium: in vitro
Tested at: 100 nM
Notes: whole RNA, constant flanks, single concentration, ends assumed
Relative to: round 9 selected pool
Direction: higher = stronger binding
GGGCUCACCACGCACCGUGGUUAAAUUUUAAGCGUUGUGGCCUCACCACGGCAAGCU — relative RNA binding: 44 % of pool
GGGCUCACCACGCACGUGGGCCAAGGUGGGGUUUGGUGUGCCUCACCACGGCAAGCU — relative RNA binding: 1.6 % of pool

A few entries again (sample 2):
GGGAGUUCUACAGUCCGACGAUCAUUUCCUACACUAUUUGAGCAUGGAAAUCAUAGUCCCCACUCUGUGAAAACUUAACGCUUUUUGGAAGACAUUUCUGUAGCAUGUCAGUUUGGAGAAAUGAUGAGCUACGUGGAAUUCUCGGGUGCCAA: 0.899
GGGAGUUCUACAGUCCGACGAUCCUUUGCACAAUGUCUUUGGUUGCAAGUCAUAAGCCUGAGGCAAAUAAAAUUCCAGUAAUUUCCAAGAAUGUGGUGUUGGUACUUUCCUAAUAAACCGAUAACGUACCUUGUGGAAUUCUCGGGUGCCAA: 5.99
